Measured values gathered from unrelated publications.
Parts stem from different laboratories: compare values within a part only.

Set 1 — technique: protein binding microarray; molecule type: double-stranded DNA, one strand shown; sample: in vitro; tested at: not given; baseline: not given; direction: higher = stronger binding
Target: Histone acetyltransferase KAT6A, winged helix 2, GST fusion (KAT6A, Homo sapiens, UniProt Q92794, residues 85-181)
Setting: 8-mer, flanks averaged, mean of 2 arrays, mostly near background
Target sequence (chain): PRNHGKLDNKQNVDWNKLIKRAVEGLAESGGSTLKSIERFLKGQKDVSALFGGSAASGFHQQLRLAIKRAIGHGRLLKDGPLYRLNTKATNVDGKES
The E-score of `ATTCGCTA` is reported as -0.186.
The E-score of `TTAGCGAA` is reported as 0.00056.
`CAGTTAAC` gave an E-score of 0.0555.

Set 2 — technique: protein-binding microarray; molecule type: double-stranded DNA, one strand shown; sample: in vitro; tested at: 250 nM; setting: 60-bp whole probe; together with: salmon DNA 0.4 mg/ml; baseline: random background probes; direction: higher = stronger binding
Target: Interferon regulatory factor 5, full length, phosphomimetic (IRF5, Homo sapiens, UniProt Q13568-2, residues 1-514, K96S/S451D/S453D/S456D/S462D)
`GCCTAGCACCAGTTTCTCTTTCCTTCTTGGTGCTAGGTCTTGATTCGCTTGACGCTGCTG` gave a log fluorescence of 6.96 z-score.
With `GCCTAGCACTTAGGTCTAGGTCTCGGTTAGTGCTAGGTCTTGATTCGCTTGACGCTGCTG` the log fluorescence was 0.0512 z-score.
For `GCCTAGCACGACGATATCGGGACTAGAGACGTGCTAGTCTTGATTCGCTTGACGCTGCTG`, the log fluorescence was 1 z-score.
With `GCCTAGCACGACGGACTGCTTATCCTGGCGTGCTAGGTCTTGATTCGCTTGACGCTGCTG` the log fluorescence was -0.738 z-score.

Set 3 — technique: RNA Bind-n-Seq; molecule type: RNA; sample: in vitro; tested at: 365 nM; baseline: no-protein control; direction: higher = stronger binding
Target: RNA binding protein fox-1 homolog 2, RRM domain, GST-SBP tag (RBFOX2, Homo sapiens, UniProt O43251-10, residues 100-194)
Setting: natural RNA segment, single round, ends assumed
Residues (chain): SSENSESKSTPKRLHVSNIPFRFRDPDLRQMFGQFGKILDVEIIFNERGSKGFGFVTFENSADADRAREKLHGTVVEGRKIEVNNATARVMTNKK
For `GGGAGUUCUACAGUCCGACGAUCCCACUGUGGAGCUUCCCUGGGGUGCCCGGGCAAGUCUUGCCAGCAAGGCAGCAAGACUUCCUGCUAUCCAAGCCCAUGGAGGAAAGUUACUGCUGAGGACCCACCCAAUGUGGAAUUCUCGGGUGCCAA`, “RBNS enrichment (R)” read 0.299.
Under “RBNS enrichment (R)”, `GGGAGUUCUACAGUCCGACGAUCGCGACUCCAAAGCUCUAGGCCAGAUGUUACAGUUGUUCGCAGCAGGCUCGAUUCUGCCCUCUCUUUUUAACCAUCUCCCUUGUAGAUGAUCCGGGCCACUAGAGAUUAGCUGGAAUUCUCGGGUGCCAA` is recorded as 0.546.
For `GGGAGUUCUACAGUCCGACGAUCCACUGCACUCCAGCCUGGCAACAGAGCAAGACUCCGUCUCAAAAAAGUGAAAAGAGAUUCAACCAAGAGGACAGCUCUGGAGCAGAAAAAUACAUGUUUAUAGGAUGCGAUGGAAUUCUCGGGUGCCAA`, “RBNS enrichment (R)” read 0.478.
For `GGGAGUUCUACAGUCCGACGAUCAGCUGGGACAAGGCCUUGCCCCCUUCCUGCCAUCUCCCCAACCCACAGUCUCUCCACCUUUGCUUCUGAAUUCUUGUUUUUGAGCAAUAAACAGAAAAUCGCCACUUGUAUGGAAUUCUCGGGUGCCAA`, “RBNS enrichment (R)” read 0.434.

Further values, each from its own experiment
`PhoQ, residues 284 288 289 292 302 303 SCCLKL` has a fold induction of 1.51 (PhoP, residues 12 14 15 18 19 LHSVW (Escherichia coli, UniProt P23836); Sort-seq, refers to: YFP reporter; E. coli; PhoQ-PhoP variant library, together with: 10 µM Mg2+; baseline: high Mg2+ state, higher = stronger signaling).

For quick reference, copied from above (set 1):
The E-score of `ATTCGCTA` is reported as -0.186.
`CAGTTAAC` gave an E-score of 0.0555.
